Published values from different studies.
A part holds a random share of what one study measured. “And” joins repeats or separate records; there may be more than shown. Substitutions count along the parent as printed.
Sequence of UniProt O75417 (whole entry, unmodified, looked up): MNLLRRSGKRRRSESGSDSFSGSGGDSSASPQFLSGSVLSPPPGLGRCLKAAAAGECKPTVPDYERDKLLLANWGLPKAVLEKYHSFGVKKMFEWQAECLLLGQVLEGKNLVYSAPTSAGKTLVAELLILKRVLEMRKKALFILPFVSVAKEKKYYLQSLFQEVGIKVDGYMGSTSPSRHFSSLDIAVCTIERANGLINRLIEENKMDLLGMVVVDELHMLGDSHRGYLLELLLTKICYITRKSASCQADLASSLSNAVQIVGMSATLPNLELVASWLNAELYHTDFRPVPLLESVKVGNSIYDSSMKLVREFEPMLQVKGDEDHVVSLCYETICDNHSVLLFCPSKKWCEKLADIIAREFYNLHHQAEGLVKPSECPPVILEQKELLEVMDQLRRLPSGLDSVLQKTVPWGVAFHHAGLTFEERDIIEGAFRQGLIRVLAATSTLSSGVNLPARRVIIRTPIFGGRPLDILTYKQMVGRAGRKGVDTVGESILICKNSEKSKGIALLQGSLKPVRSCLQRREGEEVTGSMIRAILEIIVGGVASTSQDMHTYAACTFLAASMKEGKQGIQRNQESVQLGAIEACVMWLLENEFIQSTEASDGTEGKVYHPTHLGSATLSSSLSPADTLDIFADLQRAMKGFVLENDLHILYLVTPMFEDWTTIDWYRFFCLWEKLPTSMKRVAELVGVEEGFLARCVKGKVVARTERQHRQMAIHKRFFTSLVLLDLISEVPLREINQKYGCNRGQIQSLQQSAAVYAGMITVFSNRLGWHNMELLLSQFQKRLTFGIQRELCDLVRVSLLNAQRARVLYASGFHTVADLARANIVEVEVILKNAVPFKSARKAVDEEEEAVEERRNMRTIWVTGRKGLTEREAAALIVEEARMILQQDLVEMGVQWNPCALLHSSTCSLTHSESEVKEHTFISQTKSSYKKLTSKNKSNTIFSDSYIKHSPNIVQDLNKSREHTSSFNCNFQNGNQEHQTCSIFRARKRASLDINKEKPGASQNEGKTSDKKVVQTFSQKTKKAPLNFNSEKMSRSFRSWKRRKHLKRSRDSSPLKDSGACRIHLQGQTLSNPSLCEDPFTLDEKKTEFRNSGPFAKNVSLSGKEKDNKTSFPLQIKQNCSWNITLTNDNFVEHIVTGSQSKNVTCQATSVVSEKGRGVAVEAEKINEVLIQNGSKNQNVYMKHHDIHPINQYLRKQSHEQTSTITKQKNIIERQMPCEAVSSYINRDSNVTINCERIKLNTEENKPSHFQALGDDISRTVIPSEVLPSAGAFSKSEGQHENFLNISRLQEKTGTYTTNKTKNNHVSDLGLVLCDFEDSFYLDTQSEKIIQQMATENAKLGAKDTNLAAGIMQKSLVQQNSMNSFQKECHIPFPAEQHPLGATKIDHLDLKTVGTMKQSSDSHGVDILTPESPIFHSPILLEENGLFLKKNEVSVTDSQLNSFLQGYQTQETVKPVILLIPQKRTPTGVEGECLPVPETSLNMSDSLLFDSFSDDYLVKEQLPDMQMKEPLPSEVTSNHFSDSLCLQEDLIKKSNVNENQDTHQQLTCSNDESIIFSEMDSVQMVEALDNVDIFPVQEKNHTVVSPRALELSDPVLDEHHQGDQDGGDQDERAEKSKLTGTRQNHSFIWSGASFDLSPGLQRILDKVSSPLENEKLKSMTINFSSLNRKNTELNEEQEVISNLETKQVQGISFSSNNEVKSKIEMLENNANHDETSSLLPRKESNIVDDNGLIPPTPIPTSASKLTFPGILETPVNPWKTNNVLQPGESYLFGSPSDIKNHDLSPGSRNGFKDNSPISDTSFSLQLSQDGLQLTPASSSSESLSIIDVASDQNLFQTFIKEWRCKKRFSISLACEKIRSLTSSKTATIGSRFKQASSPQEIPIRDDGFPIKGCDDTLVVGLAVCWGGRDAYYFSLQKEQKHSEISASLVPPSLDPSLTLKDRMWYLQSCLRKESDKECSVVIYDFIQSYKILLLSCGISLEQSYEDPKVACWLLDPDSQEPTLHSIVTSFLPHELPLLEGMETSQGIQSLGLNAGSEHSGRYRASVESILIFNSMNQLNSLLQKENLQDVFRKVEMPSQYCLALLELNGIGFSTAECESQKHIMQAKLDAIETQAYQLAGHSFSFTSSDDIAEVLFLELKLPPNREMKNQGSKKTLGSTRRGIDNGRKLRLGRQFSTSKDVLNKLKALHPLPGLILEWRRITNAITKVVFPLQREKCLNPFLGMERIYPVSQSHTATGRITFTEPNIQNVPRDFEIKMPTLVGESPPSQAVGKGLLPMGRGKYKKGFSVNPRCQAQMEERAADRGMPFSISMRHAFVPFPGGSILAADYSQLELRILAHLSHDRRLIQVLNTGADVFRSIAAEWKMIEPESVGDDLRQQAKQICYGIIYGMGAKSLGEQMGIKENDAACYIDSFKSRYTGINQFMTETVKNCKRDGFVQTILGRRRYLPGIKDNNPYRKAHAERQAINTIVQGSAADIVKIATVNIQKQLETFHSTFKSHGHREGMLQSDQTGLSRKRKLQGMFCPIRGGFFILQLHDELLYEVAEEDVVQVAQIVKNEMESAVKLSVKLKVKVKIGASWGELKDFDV

Set 1
Target: inorganic phosphate, free oxyanion
Method: microfluidic competitive inhibition
Matrix: in vitro, cell-free expressed
Tested at: not given
Notes: derived from inhibition constants, unchanged parent 615000 nM
Direction: lower = stronger binding
Quantity: phosphate dissociation constant
Parent: PafA, mature enzyme, eGFP fusion (Elizabethkingia meningoseptica, UniProt Q9KJX5); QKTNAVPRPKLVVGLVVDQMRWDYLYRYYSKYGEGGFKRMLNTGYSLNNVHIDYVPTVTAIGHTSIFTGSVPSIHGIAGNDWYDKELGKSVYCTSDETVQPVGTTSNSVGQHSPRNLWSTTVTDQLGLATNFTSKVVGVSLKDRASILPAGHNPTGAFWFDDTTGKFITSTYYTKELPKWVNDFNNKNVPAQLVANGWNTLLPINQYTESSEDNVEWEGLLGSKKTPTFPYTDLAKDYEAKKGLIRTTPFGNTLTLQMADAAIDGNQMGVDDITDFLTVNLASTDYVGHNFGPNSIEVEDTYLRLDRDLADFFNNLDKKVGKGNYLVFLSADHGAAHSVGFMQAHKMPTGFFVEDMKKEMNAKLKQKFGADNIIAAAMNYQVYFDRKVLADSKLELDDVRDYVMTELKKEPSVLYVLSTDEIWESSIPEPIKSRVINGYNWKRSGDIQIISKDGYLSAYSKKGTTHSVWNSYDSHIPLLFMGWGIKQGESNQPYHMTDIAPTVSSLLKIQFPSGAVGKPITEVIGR
D161G: 753 µM
E218G: 187 µM
T301G: 402 µM
K393G: 576 µM
D371V: 607 µM
P411G: 634 µM
S490G: 539 µM
G265V: 612 µM

Set 2
Target: CCND1, cyclin fold, Cln2 fusion (human)
Method: yeast growth competition, sequencing
Matrix: yeast
Notes: strong parent motif
Reference: not given
Direction: higher = stronger binding
Quantity: normalised enrichment score
Parent: viral docking peptide; KGVKRKLFAEDSS; partner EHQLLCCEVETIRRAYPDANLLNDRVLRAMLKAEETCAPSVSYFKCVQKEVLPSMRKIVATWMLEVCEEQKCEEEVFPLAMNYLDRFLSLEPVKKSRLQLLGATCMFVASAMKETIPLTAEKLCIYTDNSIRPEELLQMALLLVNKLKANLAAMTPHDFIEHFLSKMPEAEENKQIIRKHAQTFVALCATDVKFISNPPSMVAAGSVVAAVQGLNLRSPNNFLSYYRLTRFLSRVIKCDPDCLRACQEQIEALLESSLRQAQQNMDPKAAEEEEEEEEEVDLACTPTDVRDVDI
V3W: 0.18
G2W: 0.719
A9Q: 1.17
G2C: 2.58
S12W: 1.25
R5A L7A: 0.11
S13A: 1.95
E10R: 0.416

Mixed results
OGT: UDP-N-acetylglucosamine--peptide N-acetylglucosaminyltransferase 110 kDa subunit (OGT, Homo sapiens, UniProt O15294)
Sequence of UniProt O15294 (whole entry, looked up): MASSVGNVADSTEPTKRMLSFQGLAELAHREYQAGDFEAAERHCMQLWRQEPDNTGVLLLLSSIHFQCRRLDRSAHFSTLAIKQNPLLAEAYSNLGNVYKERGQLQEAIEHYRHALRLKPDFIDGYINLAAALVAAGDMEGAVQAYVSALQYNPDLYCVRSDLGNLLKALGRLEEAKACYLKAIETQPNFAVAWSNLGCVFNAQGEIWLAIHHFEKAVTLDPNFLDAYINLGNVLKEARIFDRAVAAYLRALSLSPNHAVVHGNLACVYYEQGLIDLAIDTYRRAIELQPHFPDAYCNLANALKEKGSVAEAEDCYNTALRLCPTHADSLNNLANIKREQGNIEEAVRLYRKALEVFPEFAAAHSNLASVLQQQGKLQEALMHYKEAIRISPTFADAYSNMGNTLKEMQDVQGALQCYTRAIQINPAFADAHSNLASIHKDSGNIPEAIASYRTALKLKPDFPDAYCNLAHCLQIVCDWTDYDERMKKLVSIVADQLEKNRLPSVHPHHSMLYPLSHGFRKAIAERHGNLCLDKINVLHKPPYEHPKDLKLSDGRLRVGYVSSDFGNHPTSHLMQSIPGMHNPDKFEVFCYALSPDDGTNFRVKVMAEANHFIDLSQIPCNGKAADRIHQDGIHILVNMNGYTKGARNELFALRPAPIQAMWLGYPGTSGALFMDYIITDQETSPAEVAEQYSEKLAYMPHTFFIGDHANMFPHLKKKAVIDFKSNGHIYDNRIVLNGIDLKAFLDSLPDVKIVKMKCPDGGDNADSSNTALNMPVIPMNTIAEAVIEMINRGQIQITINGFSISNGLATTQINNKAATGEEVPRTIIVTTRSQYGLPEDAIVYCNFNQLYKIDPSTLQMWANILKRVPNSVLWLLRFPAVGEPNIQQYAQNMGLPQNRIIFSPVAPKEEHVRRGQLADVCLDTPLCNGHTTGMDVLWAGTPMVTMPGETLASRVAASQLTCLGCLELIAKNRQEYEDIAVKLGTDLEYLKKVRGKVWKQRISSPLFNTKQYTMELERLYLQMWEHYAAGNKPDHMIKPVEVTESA
C[C@H](Cc1ccc(OCC(=O)O)cc1)NC[C@H](O)c1cccc(Cl)c1 (relative stereo) — remaining activity (DNA polymerase theta, ATPase domain (POLQ, Homo sapiens, UniProt O75417); enzyme activity, inhibitor; 77 µM): 99.5%
VTPKDRYLPKYTITF — enrichment fold change (OGT; binding, phage display NGS; peptide; concentration not given, panning round 3; reference: input library): 3.65
O=C1CCC(N2Cc3c(ccc4c3OCC43CCN(Cc4ccccc4)CC3)C2=O)C(=O)N1 (stereo not drawn) — Vz (rat Sprague Dawley male, plasma; intravenous, 1.0 mg/kg): 3650 mL/kg and 3600 mL/kg
KDIRQDYLPFYQITV — enrichment fold change (OGT; binding, phage display NGS; peptide; concentration not given, panning round 3; reference: input library): 3.84
Cn1nc(C(=O)NCc2ccc(C(=O)O)cc2)cc1-c1ccc2[nH]ccc2c1 — Ki (DRD5 (Homo sapiens, UniProt P21918); binding, radioligand binding): > 10 µM

Repeated from above (mixed results):
O=C1CCC(N2Cc3c(ccc4c3OCC43CCN(Cc4ccccc4)CC3)C2=O)C(=O)N1 (stereo not drawn) — Vz (rat Sprague Dawley male, plasma; intravenous, 1.0 mg/kg): 3650 mL/kg and 3600 mL/kg
KDIRQDYLPFYQITV — enrichment fold change (OGT; binding, phage display NGS; peptide; concentration not given, panning round 3; reference: input library): 3.84
Cn1nc(C(=O)NCc2ccc(C(=O)O)cc2)cc1-c1ccc2[nH]ccc2c1 — Ki (DRD5 (Homo sapiens, UniProt P21918); binding, radioligand binding): > 10 µM
